Results pooled from the literature.
Every numbered part comes from another study and shows a few of its results, in no order. Changes are numbered by the printed parent chain.

Sample 1 — read-out: peptide-MHC binding; form: peptide; tested at: concentration not given
Target: HLA class I histocompatibility antigen, A alpha chain, allele A*25:01 (Homo sapiens, UniProt P04439)
Molecule | binding
MACHRVLTY | inactive
YSLEYFQFVKK | inactive
VLWKSYPLV | inactive
MMWIPGWFG | inactive
TTFPVNGGY | inactive
TEWPQLKVA | inactive
LAYLAGWII | inactive
KQGDVFYTA | inactive
RRAYSGKQY | inactive

Sample 2 — target: CCNB1, cyclin fold, Cln2 fusion (human); technique: yeast growth competition, sequencing; sample: yeast; setting: strong parent motif; baseline: not given; reading: higher = stronger binding; starting sequence: viral docking peptide; KGVKRKLFAEDSS
Substitution | normalised enrichment score
S12C | 2.77
D11N | 1.35
F8Y | 0.246
S12E | 3.59
F8C | 0.287
R5K | 2
L7S | 0.109
K6M | 1.64
F8E | 0.591
S12Y | 2.59
K4P | 0.809
D11I | 1.27
E10C | 0.823

Sample 3 — Substance: HSPD1 (Homo sapiens, UniProt P10809); technique: cross-linking MS; sample: cells; added: BSPNO
partner | cross-linked residues
LRRC7 (Homo sapiens, UniProt Q96NW7) | K58 to K604
IKBKE (Homo sapiens, UniProt Q14164) | K292 to K677
PDRG1 (Homo sapiens, UniProt Q9NUG6) | K58 to K36
WDR35 (Homo sapiens, UniProt Q9P2L0) | K133 to M1
TST (Homo sapiens, UniProt Q16762) | K196 to V2

Sample 4 — target: UBE2W UBC core domain (UniProt Q96B02); technique: yeast two-hybrid; sample: yeast; setting: mostly zero background; baseline: not given; reading: higher = stronger interaction
B1: RNF7 RING domain (UniProt Q9UBF6); chain AICRVQVMDACLRCQAENKQEDCVVVWGECNHSFHNCCMSLWVKQNNRCPLCQQDWVVQRIGK
B2: RNF11 RING domain (UniProt Q9Y3C5); chain RDGSEKKIRECVICMMDFVYGDPIRFLPCMHIYHLDCIDDWLMRSFTCPSCMEPVDAALLSS
B3: RFPL3 RING domain (UniProt O75679); chain MAALFQEASSCPVCSDYLEKPMSLECGCTVCLKCINSLQKEPHGEDLLCCCCSMVSQRNKIRP
B4: SHPRH RING domain (UniProt Q149N8); chain KTSGGVNPEPCPICARQLGKQWAVLTCGHCFCNECISIIIEQYSVGSHRSSIKCAICRQTTSHKEISY
B5: RNF17 RING domain (UniProt Q9BXT8); chain SQPWGAAEIQCTRCGRRVSRSSGHHCELQCGHAFCELCLLMTEECTTIICPDCEVATAVNTRQR
B6: TRIM47 RING domain (UniProt Q96LD4); chain MDGSGPFSCPICLEPLREPVTLPCGHNFCLACLGALWPHRGASGAGGPGGAARCPLCQEPFPDGLQLR
B7: TRIM28 RING domain (UniProt Q13263); chain GAEALELLEHCGVCRERLRPEREPRLLPCLHSACSACLGPAAPAAANSSGDGGAAGDGTVVDCPVCKQQCFSKDIVE
Construct (chain): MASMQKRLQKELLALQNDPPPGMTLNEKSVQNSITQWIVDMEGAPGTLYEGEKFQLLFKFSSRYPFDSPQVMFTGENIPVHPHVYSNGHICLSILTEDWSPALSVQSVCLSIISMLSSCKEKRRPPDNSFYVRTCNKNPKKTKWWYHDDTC
Molecule | lacZ reporter activity
B1 (RNF7 RING domain) | 0
B2 (RNF11 RING domain) | 0
B3 (RFPL3 RING domain) | 0
B4 (SHPRH RING domain) | 0
SNNDLASLFECPVCFDYVLPPILQCQSGHLVCSNCRPKLTCCPTCRGPLGSIRNLA (SIAH1 RING domain (UniProt Q8IUQ4)) | 0
B5 (RNF17 RING domain) | 0
B6 (TRIM47 RING domain) | 0
FLSKVEETFQCICCQELVFRPITTVCQHNVCKDCLDRSFRAQVFSCPACRYDLGRSYAMQ (UHRF1 RING domain (UniProt Q96T88)) | 0
MEEMEEELKCPVCGSFYREPIILPCSHNLCQACARNILVQTPESESPQSHRAAGSGVSDY (TRIM9 RING domain (UniProt Q9C026)) | 0
B7 (TRIM28 RING domain) | 0

For quick reference, copied from above (sample 4):
Molecule | lacZ reporter activity
B5 (RNF17 RING domain) | 0
B6 (TRIM47 RING domain) | 0
B3 (RFPL3 RING domain) | 0
B7 (TRIM28 RING domain) | 0
MEEMEEELKCPVCGSFYREPIILPCSHNLCQACARNILVQTPESESPQSHRAAGSGVSDY (TRIM9 RING domain (UniProt Q9C026)) | 0
